Measurements gathered from unrelated publications.
Lines come from different studies, so protocols differ. ± gives the spread as reported.
Cell line: Vero

CC(=O)CNc1nc(NS(=O)(=O)c2ccccc2)ncc1-c1nc2ccccc2s1 — result for “maximum non-toxic concentration”: 80 µg/mL (cytotoxicity; 72 h).
With COn1cc(-c2ccccc2)c(O)c([C@@H]2O[C@H]([C@H](C)CCOC(C)=O)[C@@H](C)C[C@H]2C)c1=O the IC50 was over 4.76 µg/mL (cytotoxicity, neutral red; 48 h).
COc1ccc2c(Cc3ccccc3F)c3n(c(=O)c2c1OC)CCc1cc2c(cc1-3)OCO2 has an IC50 of 84.2 µM (cytotoxicity, CCK-8; 24 h).
COc1ccc(-c2nc(N)nc(N)c2-c2nc3ccccc3s2)cc1: “maximum non-toxic concentration” 80 µg/mL (cytotoxicity; 72 h).
For CO[C@H]1/C=C/O[C@@]2(C)Oc3c(C)c(O)c4c(O)c(c(/C=N/N5CCN(C6CCCC6)CC5)c(O)c4c3C2=O)NC(=O)/C(C)=C\C=C\[C@H](C)[C@H](O)[C@@H](C)[C@@H](O)[C@@H](C)[C@H](OC(C)=O)[C@@H]1C, the CC50 was 21.4 µM (Alamar Blue; 96 h).
For Cc1ccc(-c2nc(N)nc(N)c2-c2nc3ccccc3s2)cc1, “maximum non-toxic concentration” read 110 µg/mL (cytotoxicity; 72 h).
The IC50 of CC[C@@H](C)[C@H]1O[C@@H](c2c(O)c(-c3ccccc3)cn(O)c2=O)[C@H](C)C[C@@H]1C is reported as 1.4 µg/mL (cytotoxicity, neutral red; 48 h).
With COC(=O)N[C@H](C(=O)N1CC2(CC2)C[C@H]1c1ncc(-c2ccc3c(c2)C(F)(F)c2cc(-c4ccc5nc([C@@H]6[C@H]7CC[C@H](C7)N6C(=O)[C@@H](NC(=O)OC)C(C)C)[nH]c5c4)ccc2-3)[nH]1)C(C)C the CC50 was 34.9 µM (Alamar Blue; 96 h).
Under “maximum non-toxic concentration”, CCSC(SCC)=C(C#N)c1nc2ccccc2s1 is recorded as 110 µg/mL (72 h).
The CC50 of C#CCC(Cc1cnc2nc(N)nc(N)c2n1)c1ccc(C(=O)N[C@@H](CCC(=O)O)C(=O)O)cc1 (stereo partly shown) is reported as 0.5 µM (Alamar Blue; 96 h).
Cl.Oc1cccc2c1[nH]c1c(C3=CC4(O)CC/C=C\CCCCN5CCC3C3(CC6/C=C\CCCCN6C43)C5)nccc12 (single isomer, unassigned; (+)) gave an IC50 of 0.662 ± 0.137 µg/mL (cytotoxicity, neutral red; 48 h).
CCSc1c(-c2nc3ccccc3s2)c(N)n(NS(=O)(=O)c2ccc(C)cc2)c(=O)c1C#N: “maximum non-toxic concentration” 120 µg/mL (72 h).
CC[C@@H]1/C=C(\C)C[C@H](C)C[C@H](OC)[C@H]2O[C@@](O)(C(=O)C(=O)N3CCCC[C@H]3C(=O)O[C@H](/C(C)=C/[C@@H]3CC[C@H](Cl)[C@H](OC)C3)[C@H](C)[C@@H](O)CC1=O)[C@H](C)C[C@@H]2OC has a CC50 of 346 µM (Alamar Blue; 96 h).
Under “maximum non-toxic concentration”, CSc1c(-c2nc3ccccc3s2)c(N)n(NS(=O)(=O)c2ccccc2)c(=O)c1C#N is recorded as 100 µg/mL (72 h).
C[C@@H]1CC[C@H]2[C@@H](C)C(=O)O[C@@H]3O[C@@]4(C)CC[C@@H]1[C@]32OO4 has an IC50 of over 4.76 µg/mL (cytotoxicity, neutral red; 48 h).
For Cc1ccc(S(=O)(=O)Nc2nc(N)c(-c3nc4ccccc4s3)c(-c3ccc(Cl)cc3)n2)cc1, “maximum non-toxic concentration” read 100 µg/mL (cytotoxicity; 72 h).
O=C(Cn1ccnc1[N+](=O)[O-])NCc1ccccc1 has a CC50 of over 200 µM (Alamar Blue; 96 h).
Under “maximum non-toxic concentration”, O=C(CNc1nc(NS(=O)(=O)c2ccccc2)ncc1-c1nc2ccccc2s1)c1ccc(Cl)cc1 is recorded as 110 µg/mL (cytotoxicity; 72 h).
For CO[C@H]1/C=C/O[C@@]2(C)Oc3c(C)c(O)c4c(c3C2=O)C2=NC3(CCN(CC(C)C)CC3)NC2=C(NC(=O)/C(C)=C\C=C\[C@H](C)[C@H](O)[C@@H](C)[C@@H](O)[C@@H](C)[C@H](OC(C)=O)[C@@H]1C)C4=O, the CC50 was 17.3 µM (Alamar Blue; 96 h).
CCOC(=O)c1cc(C#N)c(=O)n(NS(=O)(=O)c2ccc(C)cc2)c1N — result for “maximum non-toxic concentration”: 90 µg/mL (72 h).
Under “maximum non-toxic concentration”, Nc1nc(NS(=O)(=O)c2ccccc2)nc(-c2ccccc2)c1-c1nc2ccccc2s1 is recorded as 90 µg/mL (cytotoxicity; 72 h).
CSc1c(-c2nc3ccccc3s2)c(N)n(NS(=O)(=O)c2ccc(C)cc2)c(=O)c1C#N — result for “maximum non-toxic concentration”: 110 µg/mL (72 h).
Cc1ccc(S(=O)(=O)Nc2nc(N)c(-c3nc4ccccc4s3)c(-c3ccc(F)cc3)n2)cc1 — result for “maximum non-toxic concentration”: 100 µg/mL (cytotoxicity; 72 h).
Nc1n[nH]c2c(-c3nc4ccccc4s3)c(N)n(NS(=O)(=O)c3ccccc3)c(=O)c12: “maximum non-toxic concentration” 90 µg/mL (72 h).
COc1ccc(-c2nc(NS(=O)(=O)c3ccccc3)nc(N)c2-c2nc3ccccc3s2)cc1 — result for “maximum non-toxic concentration”: 100 µg/mL (cytotoxicity; 72 h).
